Assay results collected from several papers.
Compare with care: the assays were run in different laboratories. Several values in a cell are separate wells, animals, samples, runs or records.
Target: Serine/threonine-protein kinase PLK2 (PLK2, Homo sapiens, UniProt Q9NYY3)

SMILES | test | conditions | scale | quantity | result
COc1c(OCCCN2CCOCC2)ccc2c1N=C(NC(=O)c1cnc(N)nc1)N1CCN=C21 | kinase activity, inhibitor | 1 µM | baseline: untreated control | remaining activity | 111%
Nc1ncc2c(n1)-c1c([nH]c3ccc(C4=CCOCC4)cc13)CCC2 | binding, competition with immobilised ligand | 1 µM | – | remaining binding | 87%
C=CC(=O)N1CCCC(n2c(=O)c3ncccc3n(Cc3ccc(Oc4ccccc4)cc3)c2=O)C1 (centres unmarked) | cell-free assay, competition with immobilised ligand | 1 µM | – | remaining binding | 69%
NC(=O)[C@@H](O)C[C@H]1CCc2sc3ncnc(O[C@H]4CC[C@H](N5CCOCC5)CC4)c3c21 | enzyme activity, inhibitor | 10 µM | – | inhibition | 0%
COc1ccc(O)cc1-c1c[nH]c2ncc(-c3cncc(C(=O)N(C)C)c3)cc12 | binding, competition with immobilised ligand | 0.2 µM | – | inhibition | 5.87%
Cc1ccc(-c2c(/C=C(\C#N)C(=O)NC(C)C)n(CCCO)c3ncnc(N)c23)cc1 | cell-free assay, competition with immobilised ligand | 1 µM | – | remaining binding | 91%
O=C=[N][Ru-4]123([n]4c5ccc(O)cc5c5c6c(c7cc(F)c[n+]1c7c54)C(=O)NC6=O)[S+]1CC[S+]2CC[S+]3CC1 (centres unmarked) | enzyme activity | 100 nM, human enzyme, together with: 10 µM ATP | baseline: untreated | remaining activity | 96%
COc1cc(Nc2nccc(-c3cnn4nc(OC)ccc34)n2)cc(C(F)(F)F)c1 | binding, competition with immobilised ligand | 1 µM | – | remaining binding | 100%
C=CC(=O)N1Cc2nc(-c3cc(-c4cc(Cl)cnc4Cl)c(F)cc3F)n(-c3ccncn3)c2C1 | cell-free assay, inhibitor | 1 µM | – | inhibition | 4.7%
Cc1cnc2nc1Nc1cccc(c1)COC/C=C/COCc1cc(ccc1OCCN1CCOCC1)N2 | – | concentration not given | – | percent of control | 90%
COCC12C(=O)NC3C4(C(OC)CC1O)C1CC5(O)C(OC)C(O)C(OC(C)=O)(C1C5OC(=O)c1ccccc1)C3(O)C(OC)C24 (centres unmarked) | kinase activity, inhibitor, ProQinase kinase profiling | 25 µM | baseline: control | remaining activity | 101% and 108%
CN1CCN(Cc2ccc(-c3ccc(CO[C@H]4CCC[C@@H]4NC(=O)c4cc(-c5cnn(C)c5)cnc4N)cc3)cc2)CC1 | enzyme activity, inhibitor | 0.1 µM | – | inhibition | 5%
CC(C)=CC1OC(C)(C)C2C=C3C(=O)C(Cl)=CC(O)C3C3C(O)C4OC4C(=O)C132 (centres unmarked) | cell-free assay, competition with immobilised ligand | 10 µM | – | remaining binding | 58%
COc1cc(-n2cc3cc(F)cc(C(N)=O)c3n2)cc(Cl)c1C1CC(O)(CCO)Cc2ccccc21 (centres unmarked) | enzyme activity, inhibitor | 10 µM | – | inhibition | 6.73%

A few entries again:
SMILES | test | conditions | scale | quantity | result
COc1ccc(O)cc1-c1c[nH]c2ncc(-c3cncc(C(=O)N(C)C)c3)cc12 | binding, competition with immobilised ligand | 0.2 µM | – | inhibition | 5.87%
